Measurements from different studies.
Each numbered part is a random draw from the data of one study; scales do not carry over between parts.

Block 1
Target: HLA class I histocompatibility antigen, A alpha chain, allele A*80:01 (Homo sapiens, UniProt P04439)
Observed: peptide-MHC binding
Molecule type: peptide
Concentration: concentration not given
Quantity: binding
FLQQRKPPL: inactive
LPPVVPPLI: inactive
FVMPIFEQI: inactive
MQGKDFNHL: inactive
YQAENSTAE: inactive
IAHVRDVVM: inactive
KLYLRPWWH: inactive
LEGLADAIW: inactive
TLPGCLIIL: inactive
HSDDALFIY: inactive
QAHMGIAGL: inactive
KFRDMITFR: inactive
ALRRRTGTR: inactive
YAKKFKTGM: inactive
FPLWNTEKI: inactive
GVRQFSGWM: inactive
MNNGGDAMY: inactive
QLSLRMLSL: inactive
FVKDWMDRI: inactive
SYMLQGLRK: inactive
IEAKINVAD: inactive
AVDWYQQRI: inactive
MTPGRGLSK: inactive
HAAVRRNAF: inactive
MLTNASGHA: inactive

Block 2
Target: UBE2D4 UBC core domain (UniProt Q9Y2X8)
Method: yeast two-hybrid
Medium: yeast
Notes: mostly zero background
Relative to: not given
Direction: higher = stronger interaction
Quantity: lacZ reporter activity
B1: RNF111 RING domain (UniProt Q6ZNA4); chain EGTEEDTEEKCTICLSILEEGEDVRRLPCMHLFHQVCVDQWLITNKKCPICRVDIEAQLPSE
B2: TRIM5 RING domain (UniProt Q9C035); chain LREVKLSPEGQKVDHCARHGEKLLLFCQEDGKVICWLCERSQEHRGHHTFLTEEVAREYQVKL
B3: TRIM40 RING domain (UniProt Q6P9F5); chain LQKDNQEEGVCPICQESLKEAVSTNCGHLFCRVCLTQHVEKASASGVFCCPLCRKPCSEEVLG
B4: NEURL1 RING domain (UniProt O76050); chain VTPGLGQWSDECTICYEHAVDTVIYTCGHMCLCYACGLRLKKALHACCPICRRPIKDIIKT
B5: TRIM24 RING domain (UniProt O15164); chain EAARLNLLDTCAVCHQNIQSRAPKLLPCLHSFCQRCLPAPQRYLMLPAPMLGSAETPPPVPAPGSPVSGSSPFATQVGVIRCPVCSQECAERHII
B6: VPS41 RING domain (UniProt P49754); chain KGVLVDEENICESCLSPILPSDAAKPFSVVVFHCRHMFHKECLPMPSMNSAAQFCNICSAKNRGPGSAI
B7: DTX4 RING domain (UniProt Q9Y2E6); chain QKVRHPPDEDCTICMERLTAPSGYKGPQPTVKPDLVGKLSRCGHVYHIYCLVAMYNNGNKDGSLQCPTCKTIYGVKTGTQ
B8: TRIM5 RING domain (UniProt Q9C035); chain ILVNVKEEVTCPICLELLTQPLSLDCGHSFCQACLTANHKKSMLDKGESSCPVCRISYQPENIRP
B9: SH3RF2 RING domain (UniProt Q8TEC5); chain DDLTLLDLLECPVCFEKLDVTAKVLPCQHTFCKPCLQRVFKAHKELRCPECRTPVFSNIEAL
Residues (chain): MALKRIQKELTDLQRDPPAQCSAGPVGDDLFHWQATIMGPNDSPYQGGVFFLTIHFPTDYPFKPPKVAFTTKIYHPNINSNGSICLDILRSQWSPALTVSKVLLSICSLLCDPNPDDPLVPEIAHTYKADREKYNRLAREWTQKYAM
B1 (RNF111 RING domain): 15100
B2 (TRIM5 RING domain): 0
B3 (TRIM40 RING domain): 0
B4 (NEURL1 RING domain): 0
MPIRALCTICSDFFDHSRDVAAIHCGHTFHLQCLIQWFETAPSRTCPQCRIQVGKRTIIN (TRAIP RING domain (UniProt Q9BWF2)): 0
B5 (TRIM24 RING domain): 0
GAAPGPEAAECLVCSELALLVLFSPCQHRTVCEECARRMKKCIRCQVVVSKKLRPD (MIB2 RING domain (UniProt Q96AX9)): 0
B6 (VPS41 RING domain): 0
B7 (DTX4 RING domain): 0
VEPSEENSKDCVVCQNGTVNWVLLPCRHTCLCDGCVKYFQQCPMCRQFVQESFALC (CGRRF1 RING domain (UniProt Q99675)): 0
PAELEVQASECVVCLEREAQMIFLNCGHVCCCQQCCQPLRTCPLCRQDIAQRLRIY (LRSAM1 RING domain (UniProt Q6UWE0)): 0
B8 (TRIM5 RING domain): 0
B9 (SH3RF2 RING domain): 0

Block 3
Target: Sal-like protein 4, full length isoform A (SALL4, Homo sapiens, UniProt Q9UJQ4, residues 1-1053)
Chain of UniProt Q9UJQ4 (whole entry, looked up): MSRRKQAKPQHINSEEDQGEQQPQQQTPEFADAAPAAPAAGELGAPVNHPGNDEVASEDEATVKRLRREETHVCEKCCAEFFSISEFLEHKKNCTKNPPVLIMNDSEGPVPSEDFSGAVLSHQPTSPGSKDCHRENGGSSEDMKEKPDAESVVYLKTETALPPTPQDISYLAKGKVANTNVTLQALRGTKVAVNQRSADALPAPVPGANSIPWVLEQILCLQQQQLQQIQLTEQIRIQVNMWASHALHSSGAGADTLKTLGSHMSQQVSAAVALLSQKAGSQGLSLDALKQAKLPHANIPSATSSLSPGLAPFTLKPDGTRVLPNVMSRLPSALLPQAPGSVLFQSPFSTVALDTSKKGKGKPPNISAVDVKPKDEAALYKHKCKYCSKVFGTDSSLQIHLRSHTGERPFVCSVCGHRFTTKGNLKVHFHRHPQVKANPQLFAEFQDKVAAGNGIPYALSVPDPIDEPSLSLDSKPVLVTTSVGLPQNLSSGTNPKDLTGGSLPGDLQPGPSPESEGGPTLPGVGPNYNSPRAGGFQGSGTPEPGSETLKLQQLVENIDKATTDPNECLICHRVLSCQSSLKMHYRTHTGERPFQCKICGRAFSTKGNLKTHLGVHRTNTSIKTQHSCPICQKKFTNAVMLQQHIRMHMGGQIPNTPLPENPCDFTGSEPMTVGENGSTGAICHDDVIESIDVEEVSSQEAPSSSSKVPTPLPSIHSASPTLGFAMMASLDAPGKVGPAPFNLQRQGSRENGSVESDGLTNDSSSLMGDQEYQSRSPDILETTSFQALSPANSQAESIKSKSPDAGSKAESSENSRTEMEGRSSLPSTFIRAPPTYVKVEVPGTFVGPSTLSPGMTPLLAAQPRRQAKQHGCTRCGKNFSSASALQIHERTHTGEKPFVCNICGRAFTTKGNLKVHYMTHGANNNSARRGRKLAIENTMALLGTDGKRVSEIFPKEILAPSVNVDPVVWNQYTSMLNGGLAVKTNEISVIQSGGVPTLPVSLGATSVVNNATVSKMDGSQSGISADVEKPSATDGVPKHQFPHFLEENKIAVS
Method: universal PBM
Molecule type: double-stranded DNA, one strand shown
Medium: in vitro
Concentration: 600 nM
Notes: 8-mer, flanks averaged, mean of replicates
Direction: higher = stronger binding
Quantity: E-score
GTAAGTGA: 0.0914
GTTTTGGA: 0.12
GGATTTAC: 0.0363
ATAACGAT: 0.137
GAGCCATA: 0.0168
GGTTCCCA: -0.258
AAGTGATT: 0.154
TAGGCCGA: -0.251

Block 4
Target: Prothrombin, mature alpha-thrombin (F2, Homo sapiens, UniProt P00734)
Method: aptamer microarray, sandwich
Molecule type: DNA with 2'F-ANA
Medium: in vitro
Concentration: 200 nM
Notes: whole 15-mer aptamer, many near background
With: Cy3 exosite-II aptamer, 400 nM
Direction: higher = stronger binding
Quantity: mean fluorescence intensity
Oligonucleotide: GGTTGGTGTGGTTGG
2'F-ANA at 3 5 6 7 8 11 13: 107 a.u.
2'F-ANA at 1 5 10 11 12 13 14 15: 58.9 a.u.
2'F-ANA at 1 3 4 7 8 9 10 13 14 15: 60.9 a.u.
2'F-ANA at 3 5 7 8 10 11 12 13 14 15: 57.1 a.u.
2'F-ANA at 2 3 6 8 11 12 13 14 15: 368 a.u.
2'F-ANA at 1 3 4 6 9 10 12 15: 75.9 a.u.
2'F-ANA at 3 4 5 6 8 12 13: 140 a.u.
2'F-ANA at 1 2 3 5 7 8 10 11 14: 47 a.u.
